# Measured values from different studies.
# Each numbered part is a random draw from the data of one study; scales do not carry over between parts. Positions count from the first letter of the parent shown.

# Set 1
# Target: CCNA2, cyclin fold, Cln2 fusion (human)
# Technique: yeast growth competition, sequencing
# Matrix: yeast
# Setting: strong parent motif
# Baseline: not given
# Reading: higher = stronger binding
# Starting sequence: MICAL3 docking peptide (human); LQLRRQLSFSEDS
Change,normalised enrichment score
LQLRRWLSFSEDS [Q6W],1.21
LQLRRQLSFSLDS [E11L],3.15
LQLRRQLSFSETS [D12T],3.55
LQLRRQLSFSEGS [D12G],3.38
LQLRRQLSFSEVS [D12V],3.94
LQLRRQLSHSEDS [F9H],-0.168
LHLRRQLSFSEDS [Q2H],3.71
LQLRRQYSFSEDS [L7Y],0.207
LQLRRQLSFSYDS [E11Y],2.38
LQLRRQLSFSGDS [E11G],3.47
LQLRGQLSFSEDS [R5G],0.22
LQLRRQVSFSEDS [L7V],0.369
LQWRRQLSFSEDS [L3W],3.94
LYLRRQLSFSEDS [Q2Y],3.03
LQLRRQLSFSEKS [D12K],3.63
LQLRRQLSFSEHS [D12H],3.53
LQLRRQLSFSERS [D12R],3.1
LQLRRQNSFSEDS [L7N],-0.107
LQLRRQESFSEDS [L7E],0.0897
LQLRRQLLFSEDS [S8L],3.55
LQLRIQLSFSEDS [R5I],0.558
LQLRRQLSNSEDS [F9N],0.0663
LQLRPQLSFSEDS [R5P],-0.214

# Set 2
# Target: RING finger protein unkempt homolog, zinc fingers 1-6, GST-SBP tag (UNK, Homo sapiens, UniProt Q9C0B0, residues 30-357)
# Technique: RNA Bind-n-Seq
# Molecule type: RNA
# Matrix: in vitro
# Concentration: not given
# Setting: RNA with constant flanks, human and mouse sites, ends assumed
# Baseline: input RNA pool
# Reading: higher = stronger binding
# Shared flanks, not repeated: GGGAGUUCUACAGUCCGACGAUC … CAACAGAGGAUUGAGCAUCA
# Target sequence (chain): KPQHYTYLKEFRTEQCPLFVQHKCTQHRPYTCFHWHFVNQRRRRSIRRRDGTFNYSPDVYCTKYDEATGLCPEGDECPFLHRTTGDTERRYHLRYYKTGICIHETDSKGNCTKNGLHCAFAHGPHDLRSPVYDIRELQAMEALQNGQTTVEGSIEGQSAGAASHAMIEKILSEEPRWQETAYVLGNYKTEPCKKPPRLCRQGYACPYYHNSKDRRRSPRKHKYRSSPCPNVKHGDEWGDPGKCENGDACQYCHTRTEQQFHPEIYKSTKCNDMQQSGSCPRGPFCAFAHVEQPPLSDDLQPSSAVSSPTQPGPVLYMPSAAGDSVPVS
Strand,bound/input enrichment [ratio]
UCAUAUAUCCAACUCUGGAUUCUAAUAAAAUAAUUUGGAGAACUUUGAGAAAAAGGAAAACUGUUAAAUAAGAAAAGACCUAUUUAGAAAUUAUACUUUAGUCUAACGAAGAGGAGGUAC,18.5
UUUGUUGUUACCAAGAAAACUCAGACUAUUUACCCCAAACCAGUGACAUUCAAUACCUUGCAAAUUCCACCAAAUGUUGCUACAGAAACACAAUUAAAAGGUGGUCAGCAUCCUCAAGCU,0.111
AUUUUUUCAGUGUGCCCCAAGGGCAUUAAUGAGCCUUUAUAACUGAGAAAUGAUUCUUGUUAUAGUAAUUAUUCCAUAAAUGAUACCACUAGAUAAAUUACCUUGGGUUAAUAGCUCCAG,6.01
GAGUAAGCAUGCUGUACAUUGUUUUGUGUUUAGUUUUACACCAAACUGUAUUACAGUACUCUUAGUAUUCACCAGCAUACUCACUAUCUGCCUAAGAUAUGCAGCCUUUGUGUUACAAUA,0.264
UCACUGCAGUCUUCCCUGGGUCUUCCCUUCAAAUGCCCAUGGCGUUUAUCCUUCUCCCUCUCUAGAAAUGUACUCGACUGUUAUAACGAGGGAGUGUGAUUGGGUCUCUGUAGGUCUCUG,0.355
UUGGUGCGGAACCUGUCUGAGGAAGGUCUCUUGCGAUUGUAUCGGACCACUGUCAUUCAAGAUGGCAUCAAGAAGAAGGUGGAUCUGGUGGUGCACCCGUCCAUGGACCAGAACGACCCU,0.0774
GCAAAGCGGUGCACUCGGGCUCCACGCGCGCCCUGCGAGGUGGGCGCUGCGUUUUCAUUUCACGGGUGAGGAGACUUAGAGAGACGAAGCCACUUGUCCAAGGUCACGCCGCUGGUGAGU,0.193
GGGAGCCCCAUCGCGUCUGUCUCCUUUGGCGCUUGCAGAGACUUCAUUUUCCGGCACAAAGACUCUCGAGGGAAGAGGCCCCGGAGGACAGUGGAGGUGGUCAGGCUGCAGCUGGCACAC,0.383

# Set 3
# Target: UBE2E2 UBC core domain (UniProt Q96LR5)
# Sequence of UniProt Q96LR5 (whole entry, looked up): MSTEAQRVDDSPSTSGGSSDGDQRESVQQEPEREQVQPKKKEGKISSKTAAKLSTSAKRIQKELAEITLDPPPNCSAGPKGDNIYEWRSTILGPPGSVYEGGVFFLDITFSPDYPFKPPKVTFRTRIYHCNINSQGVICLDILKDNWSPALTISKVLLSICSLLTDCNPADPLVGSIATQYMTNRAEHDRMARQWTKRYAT
# Technique: yeast two-hybrid
# Matrix: yeast
# Setting: mostly zero background
# Baseline: not given
# Reading: higher = stronger interaction
# B1: RNF170 RING domain (UniProt Q96K19); chain TRQQFYTDMYCPICLHQASFPVETNCGHLFCGACIIAYWRYGSWLGAISCPICRQTVTLLLTVF
# B2: RC3H2 RING domain (UniProt Q9HBD1); chain QAAQWTEFLSCPICYNEFDENVHKPISLGCSHTVCKTCLNKLHRKACPFDQTAINTDIDVL
# B3: TRIM63 RING domain (UniProt Q969Q1); chain PMENLEKQLICPICLEMFTKPVVILPCQHNLCRKCANDIFQAANPYWTSRGSSVSMSGGRFRCPTCRHEVIMDRHGV
# B4: CUL9 RING domain (UniProt Q8IWT3); chain AQAVPVRPDHCPVCVSPLGCDDDLPSLCCMHYCCKSCWNEYLTTRIEQNLVLNCTCPIADCPAQPTGAFIR
# B5: UHRF2 RING domain (UniProt Q96PU4); chain CGGDPEKKCHSCSCRVCGGKHEPNMQLLCDECNVAYHIYCLNPPLDKVPEEEYWYCPSCKTDSSEVVKAGER
# B6: RNF25 RING domain (UniProt Q96BH1); chain LTDNNIPHGQCVICLYGFQEKEAFTKTPCYHYFHCHCLARYIQHMEQELKAQGQEQEQERQHATTKQKAVGVQCPVCREPLVYDLASL
# B7: PHF21A RING domain (UniProt Q96BD5); chain SPTSTDGDIHEDFCSVCRKSGQLLMCDTCSRVYHLDCLDPPLKTIPKGMWICPRCQDQMLKKEEAIPW
Molecule,lacZ reporter activity
B1 (RNF170 RING domain),0
FASPPDSNFVCSVCHGVLKRPARLPCSHIFCKKCILRWLARQKTCPCCRKEVKRKKVVH (RNF151 RING domain (UniProt Q2KHN1)),0
KTLSRFGIQPCSICLGDAKDPVCLPCDHVHCLRCLRAWFASEQMICPYCLTALPDEFSPA (RNF213 RING domain (UniProt Q63HN8)),0
B2 (RC3H2 RING domain),0
QHHELTSLFECPVCFDYVLPPILQCQAGHLVCNQCRQKLSCCPTCRGALTPSIRNL (SIAH2 RING domain (UniProt O43255)),0
QLRRLQEERTCKVCMDKEVSVVFIPCGHLVVCQECAPSLRKCPICRGIIKGTVRTF (BIRC2 RING domain (UniProt Q13490)),0
EDEVSDNSAECVVCLSDVRDTLILPCRHLCLCNTCADTLRYQANNCPICRLPFRALLQIR (RNF157 RING domain (UniProt Q96PX1)),0
B3 (TRIM63 RING domain),0
B4 (CUL9 RING domain),0
B5 (UHRF2 RING domain),0
B6 (RNF25 RING domain),0
B7 (PHF21A RING domain),0
QLRRLQEERTCKVCMDKEVSIVFIPCGHLVVCKDCAPSLRKCPICRSTIKGTVRTF (BIRC3 RING domain (UniProt Q13489)),0
RLTMMWEEVTCPICLDPFVEPVSIECGHSFCQECISQVGKGGGSVCPVCRQRFLLKNLRP (TRIM21 RING domain (UniProt P19474)),0

# Set 4
# Target: Phosphate system positive regulatory protein PHO4, full length, GST-tagged (PHO4, Saccharomyces cerevisiae, UniProt P07270, residues 1-312)
# Technique: competition protein-binding microarray
# Molecule type: double-stranded DNA, one strand shown
# Matrix: in vitro
# Concentration: 2 µM
# Setting: whole 60-bp probe, lowest competitor level
# Together with: Cbf1 competitor, 0.05 µM
# Reading: higher = stronger binding
# Shared flanks, not repeated: … GTCTTGATTCGCTTGACGCTGCTG
# Residues (chain): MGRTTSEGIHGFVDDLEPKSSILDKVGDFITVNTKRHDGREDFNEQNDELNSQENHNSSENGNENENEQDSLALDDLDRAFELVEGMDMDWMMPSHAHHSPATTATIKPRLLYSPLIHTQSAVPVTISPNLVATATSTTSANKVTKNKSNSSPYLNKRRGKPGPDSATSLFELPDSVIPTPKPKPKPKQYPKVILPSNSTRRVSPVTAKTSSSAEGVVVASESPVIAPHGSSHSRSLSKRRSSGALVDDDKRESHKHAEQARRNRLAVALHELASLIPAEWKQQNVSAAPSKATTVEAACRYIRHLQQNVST
Strand,fluorescence intensity
ATTAAACTTTTTAGACACATGACAAAGGCCATCGGC,7720 a.u.
TTCATTTCCCAGAGCAGCATGACAGCTTGGTTTCTT,5650 a.u.
CGTCCTAGTGATTGTCACCTCACTTCCATGAGGAAG,4730 a.u.
CTTGTCATCTCTATTCACATGGGGTGGTATCTGTAT,10000 a.u.
GAATGGTAACCCTGTCACCTGTCTTTGGGAAGGTGG,4450 a.u.
GAACAGGATCTCCGCCATGTGAATATTTATGCATGA,6070 a.u.
CGGGGTTAAGTTTGTCTCGTGGGTGGCTTGCAGCAG,10700 a.u.
AAAGAGACACAAAACTACGTGGGACAAGCTTGGGGT,6110 a.u.
AAATTACTAAGTTGCACCGTGGGTGACGCCGTATGA,8020 a.u.
AAGACGCTGATTCACCACGTGAGACGAAGATTCAAA,14900 a.u.
CATCTAAAAGCATTACGCATGCCCTATAACTGGTAA,9330 a.u.
CTTTCCCGATCTTGAACGGTGGGTGTAGCACATTTG,4290 a.u.
CTCTCCATTCATTCACACGTCATACATGGCTAACTG,6400 a.u.
TTAATGAGTAATCCGCACGTTTTTAATCTAGCTAAT,13900 a.u.
CGCGGCTCTTGGCAGCACGAGGTGGTTTCACTGCAG,13600 a.u.
AAATTACTAAGTTTTCACGTGACATACCCCGTATGA,12700 a.u.
TCGGATTACTTTACCCACGTGCGATATCATCAATTA,17500 a.u.
AATGTCAGTATTTATAGCGTGATGGTTCATTACCCG,5170 a.u.
CGAGATTCATACAATGGCGTGCAAACAAAATGATTA,6900 a.u.
TAGGACATTGTACGACGCGTGTCGGACCATGGAAAA,6900 a.u.
TTCAACCTTCCCTAACACATGAAACTATTATTGGTT,5290 a.u.
TACTGCTTCCAGGTCCACGTTCTTCTTTTTGCCTCC,12300 a.u.
GTCTTGTCTCATTTTCACGTGACATTCCCCACTTCA,11600 a.u.
TGCCATTGATCCAGTCTCGTGACTCGGACAGAACTG,5830 a.u.
TGCGCAACAACTTTTCACGTGGAATTATGTCTAGAA,12700 a.u.

# Some of these lines once more (set 3):
Molecule,lacZ reporter activity
KTLSRFGIQPCSICLGDAKDPVCLPCDHVHCLRCLRAWFASEQMICPYCLTALPDEFSPA (RNF213 RING domain (UniProt Q63HN8)),0
B2 (RC3H2 RING domain),0
QHHELTSLFECPVCFDYVLPPILQCQAGHLVCNQCRQKLSCCPTCRGALTPSIRNL (SIAH2 RING domain (UniProt O43255)),0
QLRRLQEERTCKVCMDKEVSVVFIPCGHLVVCQECAPSLRKCPICRGIIKGTVRTF (BIRC2 RING domain (UniProt Q13490)),0
EDEVSDNSAECVVCLSDVRDTLILPCRHLCLCNTCADTLRYQANNCPICRLPFRALLQIR (RNF157 RING domain (UniProt Q96PX1)),0
